Results gathered from unrelated publications.
Values joined by “and” are separate records of one study, mostly repeats; a detail may differ. ± gives the spread as reported. Values after ≈ are worked out from the molar mass of the structure shown.
ACHE: Acetylcholinesterase (ACHE, Homo sapiens, UniProt P22303)
Sequence of UniProt P22303 (whole entry, looked up): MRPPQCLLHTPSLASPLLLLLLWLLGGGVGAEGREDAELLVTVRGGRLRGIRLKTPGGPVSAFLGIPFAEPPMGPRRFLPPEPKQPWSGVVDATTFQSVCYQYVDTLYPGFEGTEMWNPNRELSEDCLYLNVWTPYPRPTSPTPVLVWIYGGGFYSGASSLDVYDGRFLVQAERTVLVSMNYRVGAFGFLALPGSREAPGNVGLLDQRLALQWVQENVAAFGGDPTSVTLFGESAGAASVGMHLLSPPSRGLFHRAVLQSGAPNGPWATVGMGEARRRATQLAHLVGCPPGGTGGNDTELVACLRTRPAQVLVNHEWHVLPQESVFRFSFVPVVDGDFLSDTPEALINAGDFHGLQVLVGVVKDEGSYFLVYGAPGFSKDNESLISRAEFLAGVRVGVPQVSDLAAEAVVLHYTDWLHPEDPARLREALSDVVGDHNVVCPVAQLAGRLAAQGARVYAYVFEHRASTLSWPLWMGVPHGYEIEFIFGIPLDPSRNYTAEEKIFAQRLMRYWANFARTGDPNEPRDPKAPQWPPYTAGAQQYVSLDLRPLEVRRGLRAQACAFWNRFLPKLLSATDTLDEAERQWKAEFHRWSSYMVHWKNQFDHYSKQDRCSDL
Sequence of UniProt O43613 (whole entry, looked up): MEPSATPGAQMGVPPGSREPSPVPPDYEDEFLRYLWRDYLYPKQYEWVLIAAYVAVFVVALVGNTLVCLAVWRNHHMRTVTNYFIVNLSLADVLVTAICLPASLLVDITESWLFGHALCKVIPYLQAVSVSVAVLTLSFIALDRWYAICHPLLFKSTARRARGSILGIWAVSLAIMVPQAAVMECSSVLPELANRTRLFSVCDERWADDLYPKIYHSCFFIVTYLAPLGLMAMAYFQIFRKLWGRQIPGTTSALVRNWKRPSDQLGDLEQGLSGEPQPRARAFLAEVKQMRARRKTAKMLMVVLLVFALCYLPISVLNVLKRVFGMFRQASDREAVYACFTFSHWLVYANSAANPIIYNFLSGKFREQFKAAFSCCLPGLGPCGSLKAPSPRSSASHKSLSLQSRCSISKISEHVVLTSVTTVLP
Sequence of UniProt P46095 (whole entry, looked up): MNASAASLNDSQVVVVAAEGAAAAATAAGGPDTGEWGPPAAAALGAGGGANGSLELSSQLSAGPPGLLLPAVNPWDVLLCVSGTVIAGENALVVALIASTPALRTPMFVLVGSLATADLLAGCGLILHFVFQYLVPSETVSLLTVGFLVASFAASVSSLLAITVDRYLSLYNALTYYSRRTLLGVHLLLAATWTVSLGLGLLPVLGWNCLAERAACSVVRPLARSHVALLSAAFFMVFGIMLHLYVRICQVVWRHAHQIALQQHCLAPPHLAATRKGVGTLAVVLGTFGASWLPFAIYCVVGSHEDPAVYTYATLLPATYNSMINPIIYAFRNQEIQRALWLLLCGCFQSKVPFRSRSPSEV
Sequence of UniProt Q92973 (whole entry, looked up): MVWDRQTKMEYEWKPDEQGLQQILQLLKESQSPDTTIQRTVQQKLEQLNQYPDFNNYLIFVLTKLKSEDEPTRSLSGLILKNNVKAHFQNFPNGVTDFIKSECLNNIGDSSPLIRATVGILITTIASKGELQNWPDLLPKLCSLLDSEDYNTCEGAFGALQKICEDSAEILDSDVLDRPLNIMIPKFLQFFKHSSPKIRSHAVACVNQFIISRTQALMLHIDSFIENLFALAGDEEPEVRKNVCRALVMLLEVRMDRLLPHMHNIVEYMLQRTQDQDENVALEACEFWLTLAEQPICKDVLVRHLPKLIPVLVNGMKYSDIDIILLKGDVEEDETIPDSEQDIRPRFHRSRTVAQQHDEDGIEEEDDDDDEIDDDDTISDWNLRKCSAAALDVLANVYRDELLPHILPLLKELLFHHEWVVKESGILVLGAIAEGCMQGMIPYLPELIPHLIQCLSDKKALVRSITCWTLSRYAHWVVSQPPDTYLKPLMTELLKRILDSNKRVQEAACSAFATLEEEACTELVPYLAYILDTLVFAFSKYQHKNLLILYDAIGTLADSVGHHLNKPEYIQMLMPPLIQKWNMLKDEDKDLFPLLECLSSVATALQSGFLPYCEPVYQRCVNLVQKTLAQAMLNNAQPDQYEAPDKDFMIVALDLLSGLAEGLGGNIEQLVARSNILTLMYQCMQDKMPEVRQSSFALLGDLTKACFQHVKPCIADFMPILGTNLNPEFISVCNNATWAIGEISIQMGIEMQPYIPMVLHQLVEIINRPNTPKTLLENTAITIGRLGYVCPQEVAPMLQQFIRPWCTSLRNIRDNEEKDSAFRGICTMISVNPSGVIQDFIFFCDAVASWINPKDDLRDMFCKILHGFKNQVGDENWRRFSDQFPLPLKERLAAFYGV

Under “log2 fold change”, Oc1ccc2c3c1O[C@H]1[C@@H](O)CC[C@@]4(O)[C@@H](C2)N(CC2CCC2)CC[C@]314 is recorded as 0.122 (G-protein coupled receptor 6 (Homo sapiens, UniProt P46095); β-arrestin recruitment, TANGO luminescence, measured: GPR6; concentration not given; reference: basal luminescence).
Nc1ncnc2c1ncn2[C@@H]1O[C@@H]2COP(=O)(O)O[C@H]3[C@@H](O)[C@H](n4cnc5c(=O)[nH]cnc54)O[C@@H]3COP(=O)(O)O[C@H]2[C@H]1O: “pathway fold enrichment” 14.2 (HFF-1; RNA sequencing, measured: Reactome R-HSA-3560783; downregulated pathway; reference: Zika virus alone).
With COc1c(CCC[P+](c2ccccc2)(c2ccccc2)c2ccccc2)cc2c(c1OC)OCO2.[I-] the LC50 was greater than -4 log M (PC-3; SRB).
The AUC(0-inf) of C[C@]1(CO)Cc2ncn(-c3ccc(C#N)c(Cl)c3)c2C(=O)O1 is reported as 1.05 µM·h (human, plasma; 5 mg single dose, geometric mean).
For CCCCC1(CCCC)CN(c2ccccc2)c2cc(SC)c(OCC(=O)N[C@@H](C(=O)NCC(=O)O)c3ccccc3)cc2S(=O)(=O)C1, the serum HDL-C was 44 mg/dL (measured: HDL cholesterol; human, serum; 15 mg once daily, day 8).
With CC(C)N1CCC(NC2CCN(c3cccc(-c4cc5cc(F)ccc5[nH]4)c3)CC2)CC1 the GI50 was 1720 nM (Hs-578T).
For CCN(CC)c1ccc(C=NNC(=O)CSc2nc3ccccc3c(=O)n2Cc2ccc(S(N)(=O)=O)cc2)c(O)c1, the CC50 was greater than 100000 nM (MDA-MB-435; NCI five-dose screen).
The PI-positive cells of Cn1nccc1Nc1nccc(-c2cc3c(s2)C(C)(C)N(CCN2CCOCC2)C3=O)n1 is reported as 3.25 count and 4.08 count (HCT116; IncuCyte; concentration not given, 12 (unit not given)).
For COc1cc(Nc2ncc(F)c(Nc3ccc4c(n3)NC(=O)C(C)(C)O4)n2)cc(OC)c1OC, the IC50 was greater than 10000 nM (Orexin/Hypocretin receptor type 1 (HCRTR1, Homo sapiens, UniProt O43613)).
Cn1cc2cc(C(F)(F)c3nnc4ccc(-c5cnn(C6CC6)c5)nn34)c(F)cc2n1 has an apoptotic cells of roughly 59.8% (MKN-45; annexin V-FITC/PI flow cytometry; 200 nM, 48 h).
For COc1cccc2c1C(=O)c1c(O)c3c(c(O)c1C2=O)C[C@@](O)(C(=O)CO)C[C@@H]3O[C@H]1C[C@H](NC(=O)[C@@H]2CCCN2C(=O)CNC(=O)[C@H](CC(C)C)NC(=O)[C@H](C)NC(=O)CP(=O)(O)O)[C@H](O)[C@H](C)O1, the AUC was 28.4 µM·h (healthy mice, plasma; intravenous, 23.6 mg/kg).
The CC50 of Cn1cncc1C1=CN(c2ncnc3[nH]cnc23)CCS1 is reported as greater than 200000 nM (T29; colon cancer).
For COc1cc2c(Oc3ccc4[nH]c(C)cc4c3F)ccnc2cc1OCC1(N)CC1, the Haematochezia incidence was 9.1% (paediatric refractory sarcoma patients; 12 mg).
O=C1CCP(=S)(c2ccccc2)CC1 has an IL-6 level of 6.3 ± 0.42 pg/mL (HaCaT; ELISA; IC50, 72 h).
With CC(C)[C@H](N)C(=O)N1CCC[C@H]1B(O)O the viability was 34.3% and 21.6% (EA.hy926; cell death, CellTiter-Glo; concentration not given, compound alone).
COc1ccc2c(c1)CC[C@@H]1[C@@H]2CC[C@]2(C)[C@@H](NCCCCCCN3C(=O)C=CC3=O)CC[C@@H]12 gave an inhibition of roughly 68% (N2a; fluorescence signal, inhibitor; 300 nM, pretreatment, together with: BzATP plus UTP 300 µM).
For CN1CCN(C2(CNC3CCN(c4cccc(-c5cc6cc(F)ccc6[nH]5)c4)CC3)CCC2)CC1, the GI50 was 2110 nM (UACC-62).
For C/C=C(/C)C(=O)O[C@H]1C(C)=C2[C@H]([C@@H]1OC(=O)CCCCCCC)[C@@](C)(OC(C)=O)C[C@H](OC(=O)CCC)[C@@]1(O)[C@H]2OC(=O)[C@@]1(C)O, “normalized enrichment score” read -1.69 (HEK-293T; RNA-seq GSEA, measured: Hallmark Notch signaling; 500 nM, 6 h; direction not given).
COc1ccc([C@H]2c3[nH]c4ccc(Cl)cc4c3CCN2C(=O)Oc2ccc(Cl)cc2)cc1 has an inhibition of 49% (CD19+ B cells with PBMC; cytokine secretion, measured: TNF-α; 0.01 µM, 72 h, BioMAP BT system).
O=C(O)CCC(=O)O.c1ccc(C2(c3ccccc3)CC2C2=NCCN2)cc1 (centres unmarked): IC50 “inactive” (ACHE; enzyme activity, inhibitor).
With C/C=C(/C)C(=O)O[C@H]1C(C)=C2[C@H]([C@@H]1OC(=O)CCCCCCC)[C@@](C)(OC(C)=O)C[C@H](OC(=O)CCC)[C@@]1(O)[C@H]2OC(=O)[C@@]1(C)O the phospho-eIF2α level was 0.517 and 0.708 and 0.83 (HEK293; western blot; 3 µM, 6 h, unit not given; reference: GAPDH).
For CC(C)=CCc1c(O)cc(O)cc1-c1cc2ccc(O)c(CC=C(C)C)c2o1, the cell survival was 81.58 ± 0.46% (3T3; cell growth, MTT; 7.25 µg/mL, 48 h).
Under “S phase cells”, CC(c1ccccc1)(c1ccc(O)cc1)c1ccc(O)cc1 is recorded as 8.54 ± 0.83% (HepG2 spheroids; Hoechst flow cytometry; 0.1 µM, 24 h).
COc1c(C)c2c(c(O)c1C/C=C(\C)CCC(=O)O)C(=O)OC2 has an IC50 of 282 nM (A-431; cell proliferation).
Under “MHC-I surface recovery”, Cc1ccc(-n2sc3ccccc3c2=O)cc1 is recorded as 16.2 ± 1.1% (HIV-infected PBMCs; measured: HLA-A2; 1.0 µM, two donors).
Cc1cccc(-c2cccc(C)n2)n1.Cc1cccc(-c2cccc(C)n2)n1.F[P-](F)(F)(F)(F)F.F[P-](F)(F)(F)(F)F.[Ru+2].c1ccc2cc(-c3nc4c5cccnc5c5ncccc5c4[nH]3)ccc2c1 gave an EC50 of 33300 ± 1300 nM (SK-MEL-28; cell viability; normoxia, together with: blue light 453 nm, 100 J/cm2).
With COc1cnc(OC)n2nc(NS(=O)(=O)c3c(OCC(F)F)cccc3C(F)(F)F)nc12 the inhibition was 0.39 ± 0.19% (HEK293T; cytotoxicity, CCK-8; 12.5 µM, 72 h).
Under “IC50 fold change”, CN1CCN(S(=O)(=O)c2cc([N+](=O)[O-])ccc2N(CCOS(C)(=O)=O)CCOS(C)(=O)=O)CC1 is recorded as 57.7 (sample A B-ALL PDX cells; cell viability; ex vivo; 48 h, together with: AKR1C3 inhibitor; reference: with inhibitor over alone).
Under “reversal of trafficking deficit”, O=C(O)C(Cl)Cl is recorded as -16.4% (primary rat hippocampal/cortical neuron-glia cultures; 1 µM, together with: 1 µM α-synuclein oligomers).
The protein level of Cc1cc(NS(=O)(=O)c2ccc(NC(=O)/C(C#N)=C/c3ccc(N4CCCCC4)cc3)cc2)no1 is reported as 2.46 (HCT-116; ELISA, measured: CDH1; IC50, 48 h, unit not given; reference: untreated).
For Oc1cc(Cl)ccc1Oc1ccc(Cl)cc1Cl, “point of departure” read 6.31 µM (HepG2; extracellular flux, measured: oxygen consumption rate; 6 h, distribution mode 2).
Under “annexin V-positive cells”, N.N.[Cl][Pt][Cl] is recorded as 23.9% (SAS; annexin V/PI staining; 50 µM, 24 h, mean).
CN(C)c1cc(NC(=O)CNC(C)(C)C)c(O)c2c1C[C@H]1C[C@H]3[C@H](N(C)C)C(O)=C(C(N)=O)C(=O)[C@@]3(O)C(O)=C1C2=O has an MIC of 0.125 µg/mL (≈ 0.213 µM) (Escherichia coli DH5α expressing KPC-25; bacterial growth).
For O=S(=O)(c1ccc(O)cc1)c1ccc(O)cc1, “G1 phase cells” read 72.2 ± 3.21% (HepG2 spheroids; Hoechst flow cytometry; 40 µM, 24 h).
For O=C1N(Cc2ccccc2Cl)c2ccccc2C12NN=C(c1ccccc1)S2 (centres unmarked), the fold change was 1.63 (MDA-MB-468; gene expression array, measured: TSSC4 mRNA; 10 µM, 12 h; reference: untreated, up).
The DNA methylation of COc1ccc2c(c1)[nH]c1c(C)nccc12 is reported as 94.6% (DU-145; bisulfite pyrosequencing, measured: RASSF1A promoter CpG site 13; 10 µM, 16 h).
Nc1ncc(-c2nc(N3CCOCC3)nc(N3CCOCC3)n2)c(C(F)F)n1 gave a GI50 of 412 nM (PA-1; 72 h).
With Cc1nn(-c2nc3ccc(Cl)c(Cl)c3[nH]2)c(O)c1C1OC(=O)c2ccccc21 (centres unmarked) the viability was 104% and 107% and 114% and 99% (RAW-ISG; CCK-8; 0.3 µM).
With C[C@H]1CN(c2n[nH]c3nc(N[C@H]4CC[C@H](NS(=O)(=O)CCC(F)(F)F)CC4)ncc23)CCO1 the relative abundance was 1.21 (Transportin-1 (TNPO1, Homo sapiens, UniProt Q92973); inhibitor, Kinobeads competition profiling; 20 µM; reference: vehicle).
Cc1ccc2c(c1)C(=O)C1(O)CCN(c3ccccc3)C1=N2 (centres unmarked) has an EC50 of 1900 nM (COS-7; cytokinesis; 24 h).
For Oc1cc(O)cc(-c2cc3ccc(O)cc3o2)c1, the cell survival was 47.4 ± 0.82% (3T3; cell growth, MTT; 50 µg/mL, 48 h).
The fold change of CC(C)C[C@H](NC(=O)[C@H](CCc1ccccc1)NC(=O)CN1CCOCC1)C(=O)N[C@@H](Cc1ccccc1)C(=O)N[C@@H](CC(C)C)C(=O)[C@@]1(C)CO1 is reported as -61.6 (patient normal conditionally reprogrammed cells; RNA-seq, measured: MAP1A mRNA; human; concentration not given; reference: DMSO).
For CC[C@H](C)[C@@H]1NC(=O)[C@@H]2CCCN2C(=O)[C@H](CC(C)C)NC(=O)[C@H](CC(C)C)NC(=O)CNC(=O)[C@@H](NC(=O)[C@@H](NC(=O)[C@H](CC(=O)O)NC(=O)CNC(=O)[C@@H](NC(=O)[C@H](C)NC(=O)CNC(=O)[C@H](CCCCN)NC(=O)[C@H](CC(C)C)NC(=O)[C@H](CC(C)C)NC(=O)[C@H](CCCCN)NC(=O)CNC(=O)[C@@H](NC(=O)[C@@H](N)CC(C)C)C(C)C)C(C)C)C(C)C)CSSC[C@@H](C(=O)O)NC1=O, “log2 fold change” read -2.77 (RNA-seq, measured: Ms4a8a mRNA; mouse traumatic brain injury, frontal cortex and hippocampus; dose not given; reference: TBI plus compound vs TBI).
Oc1ccc(C2(c3ccc(O)cc3)c3ccccc3-c3ccccc32)cc1 — result for “G1 phase cells”: 72.5 ± 4.17% (HepG2 spheroids; Hoechst flow cytometry; 1 µM, 96 h).
For CCCCCCCCCCCCCCCCCCN1C(=CC=CC2=[N+](CCCCCCCCCCCCCCCCCC)c3ccccc3C2(C)C)C(C)(C)c2ccccc21.[O-][Cl+3]([O-])([O-])[O-], the labelling efficiency was less than 5% (mouse erythrocytes; 1 h, 37 °C, 25 µM lipids).
For C[C@H]1[C@H](C)CC[C@]2(C(=O)O)CC[C@]3(C)C(=CC[C@@H]4[C@@]5(C)CC[C@H](O)C(C)(C)[C@@H]5CC[C@]43C)[C@H]12, the cell survival was 65.36 ± 0.61% (MCF7; cell growth, MTT; 12.5 µg/mL, 48 h).
For CO[C@H]1C[C@@H]2CC[C@@H](C)[C@@](O)(O2)C(=O)C(=O)N2CCCC[C@H]2C(=O)O[C@H]([C@H](C)C[C@@H]2CC[C@@H](OC(=O)NCCOCCOCCOCCOCCOCCOCCOCCOCCC(=O)N3CCc4cc(Cn5nc(-c6ccc7oc(N)nc7c6)c6c(N)ncnc65)ccc4C3)[C@H](OC)C2)C[C@@H](O)[C@H](C)/C=C(\C)[C@@H](O)[C@@H](OC)C(=O)[C@H](C)C[C@H](C)/C=C/C=C/C=C/1C, “AEs leading to discontinuation” read 10.5% (dose-escalation trial; patients with advanced solid tumours; intravenous, all doses weekly, grade ≥3).
COc1cc(CCC[P+](c2ccccc2)(c2ccccc2)c2ccccc2)c(OC)c2c1OCO2.[I-] gave a GI50 of -6.31 log M (MDA-MB-435; SRB).
Under “G1 phase cells”, Cc1cc(C(C)(C)c2ccc(O)c(C)c2)ccc1O is recorded as 72.7 ± 3.04% (HepG2 spheroids; Hoechst flow cytometry; 10 µM, 24 h).
Under IC50, Cl.c1ccc2sc(C3(N4CCCCC4)CCCCC3)cc2c1 is recorded as “inactive” (ACHE; enzyme activity, inhibitor).

Excerpt of the above:
Under “MHC-I surface recovery”, Cc1ccc(-n2sc3ccccc3c2=O)cc1 is recorded as 16.2 ± 1.1% (HIV-infected PBMCs; measured: HLA-A2; 1.0 µM, two donors).
For O=C1N(Cc2ccccc2Cl)c2ccccc2C12NN=C(c1ccccc1)S2 (centres unmarked), the fold change was 1.63 (MDA-MB-468; gene expression array, measured: TSSC4 mRNA; 10 µM, 12 h; reference: untreated, up).
For CCN(CC)c1ccc(C=NNC(=O)CSc2nc3ccccc3c(=O)n2Cc2ccc(S(N)(=O)=O)cc2)c(O)c1, the CC50 was greater than 100000 nM (MDA-MB-435; NCI five-dose screen).
The AUC(0-inf) of C[C@]1(CO)Cc2ncn(-c3ccc(C#N)c(Cl)c3)c2C(=O)O1 is reported as 1.05 µM·h (human, plasma; 5 mg single dose, geometric mean).
O=C1CCP(=S)(c2ccccc2)CC1 has an IL-6 level of 6.3 ± 0.42 pg/mL (HaCaT; ELISA; IC50, 72 h).
COc1c(C)c2c(c(O)c1C/C=C(\C)CCC(=O)O)C(=O)OC2 has an IC50 of 282 nM (A-431; cell proliferation).
Under “G1 phase cells”, Cc1cc(C(C)(C)c2ccc(O)c(C)c2)ccc1O is recorded as 72.7 ± 3.04% (HepG2 spheroids; Hoechst flow cytometry; 10 µM, 24 h).
The PI-positive cells of Cn1nccc1Nc1nccc(-c2cc3c(s2)C(C)(C)N(CCN2CCOCC2)C3=O)n1 is reported as 3.25 count and 4.08 count (HCT116; IncuCyte; concentration not given, 12 (unit not given)).
